Measurements collected from several papers.
Each line is one published result; not all experiments were run side by side. Values joined by “and” are separate records of one study, mostly repeats; a detail may differ. ± gives the spread as reported.

| Structure (SMILES) | test | test system | conditions | scale | measurement | result |
| --- | --- | --- | --- | --- | --- | --- |
| C[C@]12CC[C@@H]3c4ccc(O)cc4C[C@@H](CCCCCCCCC[S+]([O-])CCCC(F)(F)C(F)(F)F)[C@H]3[C@@H]1CC[C@@H]2O (some centres unmarked) | – | female nude mouse LCC2 xenograft | 2.0 mg/kg, day 9, tamoxifen-resistant | – | tumour volume | 61.9 mm3 and 111 mm3 and 80.9 mm3 and 46.1 mm3 and 75.3 mm3 and 78.5 mm3 and 46.5 mm3 |
| O=C(Nc1cccc2cccnc12)c1cnccn1 | – | mouse MIA PaCa-2 xenograft | intraperitoneal, 10 mg/kg days 1-9 then 20 mg/kg days 10-44, day 44, five times weekly | – | tumour volume | 259 ± 38 mm³ |
| CCc1cnc(NC(=O)c2cc(S(=O)(=O)N3CCOCC3)ccc2N(C)C2CCCC2)s1 | – | mouse HCC827-GR xenograft | ip, 10 mg/kg, 360 h | – | tumour volume | 186 ± 16 mm³ |
| Cc1nc(N(Cc2ccccc2)c2ccc3c(c2)/C(=C/c2ccccc2)C(=O)N3Cc2ccccc2)c2ccccc2n1 (mixture of isomers) | – | mouse LLC syngeneic tumour | ip, 30 mg/kg, 14 days | relative to: vehicle | tumour weight reduction | ~80.3% |
| C=CC(=O)Nc1cc(Nc2nccc(Nc3cc(Cl)c(F)cc3C(C)(C)O)n2)c(OC)cc1N1CC[C@@H](N(C)C)C1 | – | NCI-H2073 parental, EGFR wild type, BALB/c nude mouse, NCI-H2073 xenograft | 50 mg/kg twice daily, 21 days | – | tumour growth inhibition | 108% |
| C=CCn1c(=O)c2cnc(Nc3ccc(N4CCN(C)CC4)cc3)nc2n1-c1ccc2c(n1)[C@@](O)(CC)CC2 | – | BALB/c nude mouse, DU-145 xenograft | oral, 80 mg/kg, 5 d on 2 d off ×4, day 30 | relative to: vehicle | tumour volume difference | 768 ± 48.9 mm3 |
| O=C(NO)c1ccc(CN(c2cnccn2)c2cnccn2)cc1 | – | mouse, B16-F10 tumour | efficacious doses | – | tumour acetylated α-tubulin level | increased |
| Cl.O=C(c1cc(Cc2n[nH]c(=O)c3ccccc23)ccc1F)N1CC(CNC2CC2)C1 | – | athymic nude mouse, sample A ovarian PDX | oral, 25 mg/kg once daily, 63 days | – | tumour growth inhibition | 133% |
| CN[C@@H](C)C(=O)N[C@H]1CN(C(=O)CC(C)C)CC[C@H]2CC[C@@H](C(=O)NC(c3ccccc3)c3ccccc3)N2C1=O | tumour growth inhibition model | mouse, MDA-MB-231 xenograft | – | – | tumour growth rate constant | 0.0068 h⁻¹ |
| COc1ccc(F)cc1C(=O)NCc1ccc(-c2nn([C@@H](C)C(F)(F)F)c(N)c2C(N)=O)cc1 | – | Rec1 mantle cell lymphoma xenograft, mouse | oral, 50 mg/kg twice daily | – | tumour regression | -11% |
| CC1(C)CN(CCCCC(=O)N[C@@H](CCCCNC(=O)CCCCCCC(=O)NCCCC[C@H](NC(=O)N[C@@H](CCC(=O)O)C(=O)O)C(=O)O)C(=O)O)CC[N]2CC(C)(C)[S][Tc]2(=[O])[S]1 (some centres unmarked) [technetium-99m labelled] | SPECT/PET imaging | mouse, subcutaneous LNCaP tumour, tumour | dose not given, 4 h post-injection | – | tumour uptake | decreased |
| COc1nc(-c2cccc(-c3ccccc3)c2C)ccc1CNCCNC(=O)CCCCCCCCCCC(=O)N1CCN(CCNC(=O)c2cc3c(=O)n4cccc(C)c4nc3n(CCc3cccs3)c2=N)CC1 | – | C57BL/6 mouse B16-F10 tumour | ip, 10 mg/kg | relative to: vehicle | tumour weight reduction | 44% |
| COc1ccc(S(=O)(=O)ON=C2C=C(C)C(=O)C(C)=C2)cc1 | immunohistochemistry | NU/NU mouse, MDA-MB-468 xenograft | dose not given | relative to: DMSO | tumour H4 acetylation | decreased |
| COCc1cc(C(=O)Nc2cc([C@H]3CC[C@@H](OC(=O)NC(C)C)C3)[nH]n2)n(C)n1 | – | OVCAR-3 xenograft, NSG mouse | oral twice daily, lowest dose of escalation | – | tumour growth inhibition | 54% |
| CC1(C)CN(CCCCC(=O)N[C@H](Cc2ccccc2)C(=O)N[C@H](Cc2ccccc2)C(=O)N[C@H](CCCCNC(=O)CCCCCCC(=O)NCCCC[C@H](NC(=O)N[C@@H](CCC(=O)O)C(=O)O)C(=O)O)C(=O)O)CC[N]2CC(C)(C)[S][Tc]2(=[O])[S]1 (some centres unmarked) [technetium-99m labelled] | SPECT/PET imaging | mouse, subcutaneous LNCaP tumour, tumour | dose not given, 4 h post-injection | – | tumour uptake | decreased |
| COc1cc2ncnc(Nc3ccc(F)c(Cl)c3)c2cc1OCCCN1CCOCC1 | – | mouse LLC syngeneic tumour | ip, 50 mg/kg, 14 days | relative to: vehicle | tumour weight reduction | ~59.1% |
| COc1c(Cl)cccc1Nc1c(-c2ccncc2OC[C@@H]2COCCO2)[nH]c2c1C(=O)NCC2 | – | mouse, NSCLC PDX sample A | oral, 50 mg/kg once daily, day 27, unit not given | relative to: vehicle | tumour weight T/C | 0.06 |

For quick reference, copied from above:
| Structure (SMILES) | test | test system | conditions | scale | measurement | result |
| --- | --- | --- | --- | --- | --- | --- |
| C[C@]12CC[C@@H]3c4ccc(O)cc4C[C@@H](CCCCCCCCC[S+]([O-])CCCC(F)(F)C(F)(F)F)[C@H]3[C@@H]1CC[C@@H]2O (some centres unmarked) | – | female nude mouse LCC2 xenograft | 2.0 mg/kg, day 9, tamoxifen-resistant | – | tumour volume | 61.9 mm3 and 111 mm3 and 80.9 mm3 and 46.1 mm3 and 75.3 mm3 and 78.5 mm3 and 46.5 mm3 |
| O=C(Nc1cccc2cccnc12)c1cnccn1 | – | mouse MIA PaCa-2 xenograft | intraperitoneal, 10 mg/kg days 1-9 then 20 mg/kg days 10-44, day 44, five times weekly | – | tumour volume | 259 ± 38 mm³ |
